Published values pooled from the literature.
Parts stem from different laboratories: compare values within a part only. Substitutions count along the parent as printed.

Study 1
Target: CCNA1, cyclin fold, Cln2 fusion (human)
Method: yeast growth competition, sequencing
Sample: yeast
Notes: weak parent motif
Reference: not given
Reading: higher = stronger binding
Parent: WEE1 docking peptide (human); HKTFRKLRLFDTP; partner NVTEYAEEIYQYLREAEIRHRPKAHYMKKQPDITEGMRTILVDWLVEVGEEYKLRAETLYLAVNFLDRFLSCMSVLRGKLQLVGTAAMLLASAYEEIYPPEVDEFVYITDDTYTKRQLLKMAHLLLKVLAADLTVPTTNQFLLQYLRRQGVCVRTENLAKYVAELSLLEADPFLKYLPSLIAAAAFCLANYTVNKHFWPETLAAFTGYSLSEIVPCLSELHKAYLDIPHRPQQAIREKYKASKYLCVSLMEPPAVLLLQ
Under “normalised enrichment score”, `F4T` is recorded as 0.544.
`L9Q` — result for “normalised enrichment score”: 0.726.
`F10H` — result for “normalised enrichment score”: 0.248.
Under “normalised enrichment score”, `L9K` is recorded as 0.411.
`R8K` — result for “normalised enrichment score”: 0.557.
Under “normalised enrichment score”, `K2H` is recorded as -0.0219.
`D11Y` — result for “normalised enrichment score”: -0.236.
Under “normalised enrichment score”, `K6Q` is recorded as 0.309.
`K6R`: “normalised enrichment score” 0.224.
Under “normalised enrichment score”, `K2A` is recorded as 0.333.
Under “normalised enrichment score”, `H1G` is recorded as 0.369.
For `K2D`, “normalised enrichment score” read 0.317.

Study 2
Target: ABI1, truncated, D143A, DHFR fusion (Arabidopsis thaliana)
Method: DHFR PCA, deep sequencing
Sample: yeast
Notes: methotrexate growth selection, single substitutions
Together with: (+)-ABA 4.8 µM
Reference: wild-type fitted maximum
Reading: higher = stronger binding
Parent: PYL1, truncated, DHFR fusion (Arabidopsis thaliana); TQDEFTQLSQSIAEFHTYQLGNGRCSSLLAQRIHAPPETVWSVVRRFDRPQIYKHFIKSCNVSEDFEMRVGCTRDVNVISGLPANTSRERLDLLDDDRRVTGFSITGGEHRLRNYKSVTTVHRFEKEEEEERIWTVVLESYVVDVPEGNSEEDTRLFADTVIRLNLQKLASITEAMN
`C60S`: “relative binding score” 15.6%.
Under “relative binding score”, `Y53F` is recorded as 38.2%.
`V43K` — result for “relative binding score”: 2.73%.
Under “relative binding score”, `E89F` is recorded as -2.57%.
Under “relative binding score”, `R99N` is recorded as 28.3%.
Under “relative binding score”, `Y115W` is recorded as 2.38%.
`R32P` — result for “relative binding score”: 41.3%.
`F103A` — result for “relative binding score”: -7.92%.
For `E38F`, “relative binding score” read -1.04%.
Under “relative binding score”, `S11D` is recorded as 74.3%.
`F157T` — result for “relative binding score”: -2.28%.
Under “relative binding score”, `F103K` is recorded as -11.3%.

Study 3
Target: Centromere-binding protein 1, full length, N-terminal tag (CBF1, Saccharomyces cerevisiae, UniProt P17106, residues 1-351)
Sequence of UniProt P17106 (whole entry, looked up): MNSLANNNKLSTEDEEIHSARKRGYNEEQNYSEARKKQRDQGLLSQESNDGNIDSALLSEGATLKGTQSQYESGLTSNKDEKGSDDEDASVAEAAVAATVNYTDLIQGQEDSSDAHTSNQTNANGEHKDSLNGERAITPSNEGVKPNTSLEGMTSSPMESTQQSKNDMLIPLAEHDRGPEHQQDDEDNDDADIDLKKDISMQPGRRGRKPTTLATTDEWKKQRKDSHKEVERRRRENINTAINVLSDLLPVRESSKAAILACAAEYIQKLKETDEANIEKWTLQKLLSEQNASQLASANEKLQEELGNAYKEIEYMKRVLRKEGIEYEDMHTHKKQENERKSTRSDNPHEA
Method: protein-binding microarray
Form: double-stranded DNA, one strand shown
Sample: in vitro
Tested at: 0.8 µM
Notes: whole 60-bp probe, no competitor
Reading: higher = stronger binding
With `CTATAGGCGCTAGGGTGGGTGACGCATTTTAACTTCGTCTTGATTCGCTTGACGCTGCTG` the fluorescence intensity was 518 a.u.
The fluorescence intensity of `CCTAACTACTATAATAATCACACATAGCTTCGTACAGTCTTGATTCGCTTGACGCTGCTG` is reported as 546 a.u.
With `GAACGCATTGAGAGGCACGTACGCAAGAAGAAATAGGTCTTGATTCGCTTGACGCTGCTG` the fluorescence intensity was 574 a.u.
For `CTAACGTGACAGGTTTGTATCACGTGCTTCTTATTCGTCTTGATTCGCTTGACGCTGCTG`, the fluorescence intensity was 20600 a.u.
The fluorescence intensity of `GAATCTTTTGTACATCACGTTTCACTATATATTTAGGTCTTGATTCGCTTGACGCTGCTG` is reported as 2400 a.u.
With `CTACTAAATTAGTATGGCGTGTTGCATAGAAGGTTCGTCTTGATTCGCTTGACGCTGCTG` the fluorescence intensity was 610 a.u.
For `TGTACGAAGCTATATAAGTCACGTATAGTAGTTAGGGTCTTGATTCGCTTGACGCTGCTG`, the fluorescence intensity was 878 a.u.
`CTATGAAGAAGAAATCATGTGCTGAGAGTTGCCTTCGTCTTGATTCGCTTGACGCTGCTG` has a fluorescence intensity of 1150 a.u.
With `GAATCGCCTGAGTGTTACGTGAGATTACATATATAGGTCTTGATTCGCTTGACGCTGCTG` the fluorescence intensity was 521 a.u.
For `CTAACTTCCAAAAATCACCCGCTTGCAATGCTGTTCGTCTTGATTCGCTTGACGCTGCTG`, the fluorescence intensity was 561 a.u.
`CTACGCCATGTCCAACACGTTGCTGGCCGCAAATTCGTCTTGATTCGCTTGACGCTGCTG` has a fluorescence intensity of 544 a.u.

Further values, each from its own experiment
For `PhoQ, residues 284 288 289 292 302 303 SCEHLI`, the fold induction was 6.59 (PhoP, residues 12 14 15 18 19 NQGLL (Escherichia coli, UniProt P23836); Sort-seq, measured: YFP reporter; E. coli; PhoQ-PhoP variant library, together with: 10 µM Mg2+; reference: high Mg2+ state, higher = stronger signaling).

For quick reference, copied from above (study 2):
`V43K` — result for “relative binding score”: 2.73%.
`F157T` — result for “relative binding score”: -2.28%.
Under “relative binding score”, `F103K` is recorded as -11.3%.
Under “relative binding score”, `R99N` is recorded as 28.3%.
